Published values from different studies.
Each numbered part is a random draw from the data of one study; scales do not carry over between parts. Positions count from the first letter of the parent shown.

Sample 1
Target: CCNA1, cyclin fold, Cln2 fusion (human)
Method: yeast growth competition, sequencing
Sample: yeast
Notes: weak parent motif
Reference: not given
Direction: higher = stronger binding
Parent: WEE1 docking peptide (human); HKTFRKLRLFDTP; partner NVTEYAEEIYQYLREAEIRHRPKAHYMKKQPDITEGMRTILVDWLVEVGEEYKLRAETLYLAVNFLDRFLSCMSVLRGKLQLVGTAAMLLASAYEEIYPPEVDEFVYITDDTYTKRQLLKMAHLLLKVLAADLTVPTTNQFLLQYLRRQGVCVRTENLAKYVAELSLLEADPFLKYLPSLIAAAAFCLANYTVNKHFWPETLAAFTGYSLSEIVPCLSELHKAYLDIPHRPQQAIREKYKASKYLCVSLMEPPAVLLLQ
| Change | normalised enrichment score |
| --- | --- |
| F10A | 0.778 |
| D11L | 0.228 |
| F4S | 0.0429 |
| K6M | 0.000878 |
| T12C | 0.228 |
| H1K | 0.424 |
| L9F | 0.481 |
| T12I | 0.538 |
| P13F | 0.116 |
| P13Y | 0.522 |
| T12E | 0.369 |

Sample 2
Target: RNA binding protein fox-1 homolog 2, RRM domain, GST-SBP tag (RBFOX2, Homo sapiens, UniProt O43251-10, residues 100-194)
Method: RNA Bind-n-Seq
Form: RNA
Sample: in vitro
Concentration: 365 nM
Notes: natural RNA segment, single round, ends assumed
Reference: no-protein control
Direction: higher = stronger binding
Constant ends, left off below: GGGAGUUCUACAGUCCGACGAUC … UGGAAUUCUCGGGUGCCAA
Residues (chain): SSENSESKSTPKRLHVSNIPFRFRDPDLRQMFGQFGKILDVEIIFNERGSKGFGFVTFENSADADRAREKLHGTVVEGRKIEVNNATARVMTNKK
| Sequence | RBNS enrichment (R) |
| --- | --- |
| UCUCUCUCUCUCUCUGUGUUUCCUCCAGCCCUUGUCUCGGAGACGGUGUUUUCCUCCCUUGCCCCAUUAUCUUUUCACCUCCCAGGUCUACCAUUUCAUGGUGGUCGUUG | 0.975 |
| GAUUGUGUUUGUGCCAUAUUUGUGCCAUUCUUUUAAGAACAAUGUUGCAACACAUUCAUUUGGAUAAGUUGUGAUUUGACGACUGAUUUAAAUAAAAUAUUUGCUUCACU | 0.346 |
| AAGUGUGUGACCUUUUCUCCUGCUGAGUGGGAGAUCCCAGGGUCCCACACGCCUCACCUCGGUGAGUGGGCAGAGCUGAGCCGCACUGUGUGCCUGGGAGCAGGUUACAA | 0.206 |
| GGUGUUCCAUCUCUCUAUCAUGUCUCCUGAGUCCGUUUCACGUUUUUGAGCCUGGCUAAUGAGAAAAAGAACAAAGUAGGACCAUGACCCAGUGUUCUCCUGUAAAUCUC | 0.413 |
| CAGACAAGGUGGAGACCCAGCAGCAGUAAAUACCUAGCAAUUCCAAGGACUUGGUUUCAUCAGUUACCAGGAAGUGGGGGAACCAUGGAGGGAGAACGCUAUAUUGGGUU | 0.406 |
| CACGUCCAAGGCUGCUUACCCCAGCAACCUCCCAUCCCCUGAGCCCUCAAUAAAUGCCAUCUGUAGCAGCUGUUUGUCUGAGCGCCCUGUACUAGGGGGCCGGUGGGCUG | 0.628 |
| CCUUCAUUCUACAUAGACAUCAUUGGUUUUGGAGUUUAAAAAAAAAAGUCACCUUUUUGCUGAUGAAAAGAACAUAUGUAUAAUAUAGUUGAACUCGAAGACAACUUAAA | 0.331 |

Sample 3
Target: Ras GTPase-activating protein-binding protein 1, full length (G3BP1, Homo sapiens, UniProt Q13283)
Sequence of UniProt Q13283 (whole entry, looked up): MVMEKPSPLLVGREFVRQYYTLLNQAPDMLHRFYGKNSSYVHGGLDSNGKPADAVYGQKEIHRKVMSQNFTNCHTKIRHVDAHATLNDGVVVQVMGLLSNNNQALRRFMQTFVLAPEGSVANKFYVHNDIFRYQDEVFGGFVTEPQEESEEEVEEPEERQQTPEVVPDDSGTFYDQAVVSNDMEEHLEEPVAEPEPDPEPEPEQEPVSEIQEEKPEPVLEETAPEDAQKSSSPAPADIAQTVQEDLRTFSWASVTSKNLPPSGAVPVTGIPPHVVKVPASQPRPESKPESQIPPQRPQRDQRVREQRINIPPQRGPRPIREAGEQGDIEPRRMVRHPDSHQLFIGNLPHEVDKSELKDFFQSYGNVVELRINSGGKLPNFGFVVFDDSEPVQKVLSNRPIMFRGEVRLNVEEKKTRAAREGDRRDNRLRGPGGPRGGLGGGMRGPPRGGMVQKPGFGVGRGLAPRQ
Method: RNA Bind-n-Seq
Form: RNA
Sample: in vitro
Concentration: 200 nM
Notes: whole 134-nt RNA, ends assumed
With: 150 mM LiCl
Reference: input library
Direction: higher = stronger binding
Library: 7-deaza-guanosine replaces G
Constant ends, left off below: GGGAGUUCUACAGUCCGACGAUC … UGGAAUUCUCGGGUGUCAAGG
| Sequence | log2 enrichment |
| --- | --- |
| CACAGACAACACGCACCCACACAGACACAGAGGGAAGGGGUUGGGAUGGGGACAGGGUGCACAGCAGGGCGGGGUAGGACCCAAGCCCCU | -0.816 |
| AGUCCUGUGCUACACAUCGUAUGUACCGAAUCGGGGUUUGGGGUUUGGGGAAAGGGGAAAGUAUUAUGUUACGCCGUUCGGAUCUGCACU | -0.228 |
| CUCAAGUCCUGUGCUACACAUCGUAUGUACCGAAUCGGAAAGGUGGUUUUUGGAAAGUAUUAUGUUACGCCGUUCGGAUCUGCACUUCCA | 0.146 |
| CCUGUGCUACACAUCGUAUGUACCGAAUCGGGGAAAAAAAGGAAAAAAAGGGAAAAAAAGGAAAGUAUUAUGUUACGCCGUUCGGAUCUG | 0.296 |
| UUAAAGAAAUGUCCACAAGUAACUUUGAAUCAUCUCCUGAAGUAGAAGAAAGGCCUGCUGUGUCUUUGACUCUUGAUCAGAGCCAGUCAC | -1.2 |
| GCAGGAAGUAAAAACAAAUGGAAAUGCUUCGGAUAGUGGCAGGGGUGGGGGUUGCUAAGGAAAGGGUGGGAUGGGACUGGGUAAAGAGUU | -0.214 |
| AGUCCUGUGCUACACAUCGUAUGUACCGAAUCGGGGAGGGGAGGGGUUUUUUUGGGGAAAGUAUUAUGUUACGCCGUUCGGAUCUGCACU | 0.623 |

Mixed results
| Molecule | target | test | test system | setting | scale | measurement | result |
| --- | --- | --- | --- | --- | --- | --- | --- |
| PhoQ, residues 284 288 289 292 302 303 SQSLSM | PhoP, residues 12 14 15 18 19 YHFSH (Escherichia coli, UniProt P23836) | Sort-seq, refers to: YFP reporter | E. coli | PhoQ-PhoP variant library, with: 10 µM Mg2+ | reference: high Mg2+ state, higher = stronger signaling | fold induction | 1.32 |
